Measurements pooled from the literature.
Numbered parts are unrelated; each lists some results of a single study. Changes are numbered by the printed parent chain.

Sample 1 — target: CCNA1, cyclin fold, Cln2 fusion (human); method: yeast growth competition, sequencing; matrix: yeast; setting: weak parent motif; relative to: not given; direction: higher = stronger binding
Starting sequence: SLBP docking peptide (human); ARYKRKLLINDFG
`L7C` — result for “normalised enrichment score”: 0.0566.
Under “normalised enrichment score”, `D11R` is recorded as 0.0402.
Under “normalised enrichment score”, `G13K` is recorded as 0.602.
`D11M`: “normalised enrichment score” 0.362.
`G13S` — result for “normalised enrichment score”: -0.0814.
Under “normalised enrichment score”, `D11L` is recorded as 0.0358.
`L7G` — result for “normalised enrichment score”: 0.304.
For `A1T`, “normalised enrichment score” read 0.676.
`R2E` — result for “normalised enrichment score”: 0.462.
Under “normalised enrichment score”, `K4P` is recorded as 0.284.
Under “normalised enrichment score”, `N10Q` is recorded as 0.355.
`L8W` — result for “normalised enrichment score”: 0.519.
For `N10C`, “normalised enrichment score” read 0.193.
Under “normalised enrichment score”, `F12L` is recorded as 0.251.
`A1S` — result for “normalised enrichment score”: 0.664.
`K6H`: “normalised enrichment score” -0.00448.
Under “normalised enrichment score”, `D11W` is recorded as -0.0896.
`I9R` — result for “normalised enrichment score”: 0.364.
`F12A`: “normalised enrichment score” 0.0642.
Under “normalised enrichment score”, `N10A` is recorded as 0.327.
`L8V`: “normalised enrichment score” 0.415.
Under “normalised enrichment score”, `R2Q` is recorded as 0.51.
`R2Y` — result for “normalised enrichment score”: 0.547.
`F12I`: “normalised enrichment score” 0.0774.
Under “normalised enrichment score”, `D11H` is recorded as 0.51.

Sample 2 — method: DHFR PCA, deep sequencing; matrix: yeast; together with: (+)-ABA 0 µM; relative to: wild-type fitted maximum; direction: higher = stronger binding
Target: ABI1, truncated, D143A, DHFR fusion (Arabidopsis thaliana)
Setting: methotrexate growth selection, single substitutions
Starting sequence: PYL1, truncated, DHFR fusion (Arabidopsis thaliana); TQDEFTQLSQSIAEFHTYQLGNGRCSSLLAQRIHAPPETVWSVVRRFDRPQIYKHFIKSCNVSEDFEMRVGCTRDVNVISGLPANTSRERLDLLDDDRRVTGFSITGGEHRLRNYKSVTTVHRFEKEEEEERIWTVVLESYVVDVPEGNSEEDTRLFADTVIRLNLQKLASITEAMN; partner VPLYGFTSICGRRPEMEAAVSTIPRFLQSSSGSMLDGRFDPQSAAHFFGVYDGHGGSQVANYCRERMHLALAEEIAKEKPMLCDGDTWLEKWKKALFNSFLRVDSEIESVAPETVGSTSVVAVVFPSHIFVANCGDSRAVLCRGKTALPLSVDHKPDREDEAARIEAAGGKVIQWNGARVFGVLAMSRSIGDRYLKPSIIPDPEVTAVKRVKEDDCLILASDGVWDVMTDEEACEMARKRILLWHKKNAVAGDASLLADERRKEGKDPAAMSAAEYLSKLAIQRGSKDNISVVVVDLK
`G23N` — result for “relative binding score”: 26.7%.
For `R132D`, “relative binding score” read 52.9%.
For `E130P`, “relative binding score” read 58.5%.
`G71W` — result for “relative binding score”: 2.22%.
`V161F` — result for “relative binding score”: 16.5%.
`E128W`: “relative binding score” 7.61%.
For `V43C`, “relative binding score” read 3.68%.
`T154G` — result for “relative binding score”: -3.59%.
For `D95T`, “relative binding score” read -3.6%.
For `E152T`, “relative binding score” read 0.927%.
`V44I`: “relative binding score” 5.76%.
`E38K`: “relative binding score” -4.06%.
Under “relative binding score”, `I52E` is recorded as 16.9%.
For `V62K`, “relative binding score” read -10.1%.
`P146Q`: “relative binding score” 22.7%.
`N114D`: “relative binding score” 7.04%.
`D95Q` — result for “relative binding score”: 18.6%.
For `V40C`, “relative binding score” read -2.52%.
`E64G` — result for “relative binding score”: 14.3%.
`A84H` — result for “relative binding score”: 60.6%.

Sample 3 — method: RNA Bind-n-Seq; form: RNA; matrix: in vitro; tested at: 365 nM; relative to: no-protein control; direction: higher = stronger binding
Target: RNA binding protein fox-1 homolog 2, RRM domain, GST-SBP tag (RBFOX2, Homo sapiens, UniProt O43251-10, residues 100-194)
Setting: natural RNA segment, single round, ends assumed
Residues (chain): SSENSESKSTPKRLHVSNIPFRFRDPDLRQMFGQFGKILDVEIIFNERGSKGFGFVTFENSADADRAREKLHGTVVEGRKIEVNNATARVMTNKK
`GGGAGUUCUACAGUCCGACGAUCAUACUGUGACUUCACCUAGAUCUUCUACCAAGCUGAAGACCCUGCUGGCUCUGAAACAAUCCUUGCAGUUACUCCCCAGCUGUUCGUCUGGACAGCUCAUUCAAGUGGAUUGGAAUUCUCGGGUGCCAA` — result for “RBNS enrichment (R)”: 0.27.
`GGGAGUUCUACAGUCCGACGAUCGGGGAGAUGUGAGCCUUCUCUGGAGGGAAGUUUCAUGAUUGCAUCUAUAAUGAAUAUAUUGCCUGUUUUGUGAAUACUGACACAUGUCCAUACCUAAAACACUCCUGAGUUGGAAUUCUCGGGUGCCAA`: “RBNS enrichment (R)” 1.02.
For `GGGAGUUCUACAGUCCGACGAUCUUAAUCGGUAAUCUGCUGGCUUGUUUGUUAACCAGAACGAUGAAUUUAUCAGUGAUUUGUAAGUUUCAUCAAGUGAUUUCUUCGACAAGAUGAACCAAAGGAUUAGCCUCUGGAAUUCUCGGGUGCCAA`, “RBNS enrichment (R)” read 0.804.
For `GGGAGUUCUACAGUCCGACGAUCGAGGUGUACCUAAGAAAUUAGCAAGAAUGGAUCUGCGUCUCAGCUCAGCAGAACUAUAGCCAAUGUUUUGUUUUGUUUUCCUGAAUGCUAUCUUAUUUUUUUUCUUAUAGUGGAAUUCUCGGGUGCCAA`, “RBNS enrichment (R)” read 1.55.
`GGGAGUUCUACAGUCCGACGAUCGGACUUGCAGCACAAAUGUCACUUCUGUCUCCCUUUUCAGUGGUAGCACGGAGGAGGAGGUGCUGCGUUGGAGGGAGGGGAUCCUCCAGGAGCUCUCUGGAGCCCAUCUAUGGAAUUCUCGGGUGCCAA`: “RBNS enrichment (R)” 0.604.
Under “RBNS enrichment (R)”, `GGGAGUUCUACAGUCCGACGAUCGCGUUGAUCAUGGACUACUAAAAUGCCUUCACACAGGAGGCUUUGACUUGCACAAUUCUUUGGGAAGAAACUGCACACCCAUAGGACAGUCGAUAAGGCUGAGUCGGGGAUGGAAUUCUCGGGUGCCAA` is recorded as 0.295.
`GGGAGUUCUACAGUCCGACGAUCGGGACAGAUUGAGGAGGAAGUGGGCUCUGAGGCUGCAGGGCUGGAAGUCCUUGCCCACUUCCCACUCUCCUGCCCCAAUCUAUCUAGUACUUCCCAGGCAAAUAGGCCCCUGGAAUUCUCGGGUGCCAA` — result for “RBNS enrichment (R)”: 0.435.
`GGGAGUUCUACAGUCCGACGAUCGAAGUUUAGUUUAAUGUUAGUGCAGUGACGGGAAAUACACAUUAUGCUAAUGUUGAUGACAGAAUUUAUUUGGUUGCCUUGUGUGUUAAUUGAAUGCAUACCUAAUUGUAUGGAAUUCUCGGGUGCCAA`: “RBNS enrichment (R)” 1.26.

Sample 4 — method: universal PBM; form: double-stranded DNA, one strand shown; matrix: in vitro; tested at: not given; direction: higher = stronger binding
Target: Sal-like protein 4, full length isoform B (SALL4, Homo sapiens, UniProt Q9UJQ4-2, residues 1-616)
Setting: 8-mer, flanks averaged, mean of replicates
Residues (chain): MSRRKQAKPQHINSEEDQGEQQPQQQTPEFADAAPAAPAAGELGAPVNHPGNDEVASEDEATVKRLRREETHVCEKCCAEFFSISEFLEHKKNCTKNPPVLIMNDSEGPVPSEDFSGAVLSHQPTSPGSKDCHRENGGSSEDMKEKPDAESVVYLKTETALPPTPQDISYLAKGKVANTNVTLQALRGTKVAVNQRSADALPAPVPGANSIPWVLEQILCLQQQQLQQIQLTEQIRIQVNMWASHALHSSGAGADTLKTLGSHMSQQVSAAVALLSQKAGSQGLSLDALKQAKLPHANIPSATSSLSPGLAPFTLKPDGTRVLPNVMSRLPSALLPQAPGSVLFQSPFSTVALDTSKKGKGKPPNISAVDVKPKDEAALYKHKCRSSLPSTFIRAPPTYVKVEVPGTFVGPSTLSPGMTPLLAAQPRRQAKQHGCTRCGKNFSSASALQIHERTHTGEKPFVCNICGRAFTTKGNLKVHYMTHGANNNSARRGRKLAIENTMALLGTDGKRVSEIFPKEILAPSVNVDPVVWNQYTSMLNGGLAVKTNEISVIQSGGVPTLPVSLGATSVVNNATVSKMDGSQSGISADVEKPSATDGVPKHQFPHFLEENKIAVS
`CTGTCCTA` gave an E-score of -0.043.
`GTGGACTA` gave an E-score of -0.054.
`CCGTCTAC` gave an E-score of -0.0839.
`ATCACCCG` gave an E-score of -0.211.
The E-score of `ATCTTCGG` is reported as 0.106.
With `AGTACCGC` the E-score was -0.152.
`CTACGCAC` has an E-score of 0.00778.
For `GCGAGTGA`, the E-score was -0.0675.
`ATGGCTTG` has an E-score of -0.0807.
`GGACCCAA` has an E-score of -0.14.
`ACGTAGAG` gave an E-score of -0.0235.
With `ACTTCCAC` the E-score was -0.131.
`GGCATTCA` has an E-score of -0.00268.
`GAGGACCC` has an E-score of -0.259.
`CTCCGGAC` has an E-score of -0.284.
The E-score of `AGGAAAGG` is reported as 0.00259.
The E-score of `CATCTCAA` is reported as 0.259.
`AATGAATC` gave an E-score of 0.0802.
`CGAGTTGC` has an E-score of -0.151.
For `CCACCAAA`, the E-score was -0.105.
`ACATTGCG` has an E-score of 0.0169.
For `GAATCGAC`, the E-score was -0.134.
`CTATTGCC` gave an E-score of 0.0179.
